Published values from different studies.
Numbered parts are unrelated; each lists some results of a single study. Numbers after ± are the reported error.
UniProt P28482, sequence (whole entry, looked up): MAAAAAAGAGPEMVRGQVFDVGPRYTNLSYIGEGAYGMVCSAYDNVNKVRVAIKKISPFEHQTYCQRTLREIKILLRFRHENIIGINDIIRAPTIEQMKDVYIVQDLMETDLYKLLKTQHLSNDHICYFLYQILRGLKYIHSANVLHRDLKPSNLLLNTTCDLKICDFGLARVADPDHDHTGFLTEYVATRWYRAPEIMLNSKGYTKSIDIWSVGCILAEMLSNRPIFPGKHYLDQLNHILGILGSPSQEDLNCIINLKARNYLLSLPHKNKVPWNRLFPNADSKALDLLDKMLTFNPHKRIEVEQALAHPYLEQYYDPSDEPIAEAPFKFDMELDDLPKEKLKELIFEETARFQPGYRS
UniProt P35968, sequence (whole entry, looked up): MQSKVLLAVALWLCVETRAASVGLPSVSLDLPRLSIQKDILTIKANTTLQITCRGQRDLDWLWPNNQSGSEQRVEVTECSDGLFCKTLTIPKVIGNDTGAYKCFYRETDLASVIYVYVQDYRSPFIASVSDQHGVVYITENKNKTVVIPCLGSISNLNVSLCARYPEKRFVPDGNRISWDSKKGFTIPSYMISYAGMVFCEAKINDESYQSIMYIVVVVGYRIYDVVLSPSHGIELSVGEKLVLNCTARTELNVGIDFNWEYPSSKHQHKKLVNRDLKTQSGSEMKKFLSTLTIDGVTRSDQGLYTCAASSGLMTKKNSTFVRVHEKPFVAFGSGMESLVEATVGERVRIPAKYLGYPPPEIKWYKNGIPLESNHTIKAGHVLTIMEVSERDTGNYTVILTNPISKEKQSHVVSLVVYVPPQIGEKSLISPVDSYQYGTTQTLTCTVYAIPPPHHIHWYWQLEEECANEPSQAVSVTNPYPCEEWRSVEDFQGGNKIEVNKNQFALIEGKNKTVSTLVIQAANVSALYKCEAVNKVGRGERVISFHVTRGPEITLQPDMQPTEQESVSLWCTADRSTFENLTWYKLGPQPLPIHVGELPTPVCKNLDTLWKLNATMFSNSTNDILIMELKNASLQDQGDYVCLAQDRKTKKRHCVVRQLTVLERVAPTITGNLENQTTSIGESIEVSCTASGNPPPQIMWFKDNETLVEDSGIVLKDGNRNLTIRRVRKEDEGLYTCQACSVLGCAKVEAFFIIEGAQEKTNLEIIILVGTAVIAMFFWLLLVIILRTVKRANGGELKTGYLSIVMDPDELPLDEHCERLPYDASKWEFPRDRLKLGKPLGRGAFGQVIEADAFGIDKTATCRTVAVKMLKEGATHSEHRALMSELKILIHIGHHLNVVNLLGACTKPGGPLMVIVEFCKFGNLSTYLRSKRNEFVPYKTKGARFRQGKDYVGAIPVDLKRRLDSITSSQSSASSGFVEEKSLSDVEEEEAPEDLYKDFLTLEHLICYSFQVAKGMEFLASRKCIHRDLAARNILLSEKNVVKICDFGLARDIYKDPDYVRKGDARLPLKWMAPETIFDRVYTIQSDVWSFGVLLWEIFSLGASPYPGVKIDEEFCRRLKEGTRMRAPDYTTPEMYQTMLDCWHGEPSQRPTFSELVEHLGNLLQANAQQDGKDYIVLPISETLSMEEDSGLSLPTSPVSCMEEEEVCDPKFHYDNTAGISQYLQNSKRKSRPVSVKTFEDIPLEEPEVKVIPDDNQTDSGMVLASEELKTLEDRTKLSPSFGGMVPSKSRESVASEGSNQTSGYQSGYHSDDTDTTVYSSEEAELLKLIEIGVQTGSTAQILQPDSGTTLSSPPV
UniProt Q9UKI8, sequence (whole entry, looked up): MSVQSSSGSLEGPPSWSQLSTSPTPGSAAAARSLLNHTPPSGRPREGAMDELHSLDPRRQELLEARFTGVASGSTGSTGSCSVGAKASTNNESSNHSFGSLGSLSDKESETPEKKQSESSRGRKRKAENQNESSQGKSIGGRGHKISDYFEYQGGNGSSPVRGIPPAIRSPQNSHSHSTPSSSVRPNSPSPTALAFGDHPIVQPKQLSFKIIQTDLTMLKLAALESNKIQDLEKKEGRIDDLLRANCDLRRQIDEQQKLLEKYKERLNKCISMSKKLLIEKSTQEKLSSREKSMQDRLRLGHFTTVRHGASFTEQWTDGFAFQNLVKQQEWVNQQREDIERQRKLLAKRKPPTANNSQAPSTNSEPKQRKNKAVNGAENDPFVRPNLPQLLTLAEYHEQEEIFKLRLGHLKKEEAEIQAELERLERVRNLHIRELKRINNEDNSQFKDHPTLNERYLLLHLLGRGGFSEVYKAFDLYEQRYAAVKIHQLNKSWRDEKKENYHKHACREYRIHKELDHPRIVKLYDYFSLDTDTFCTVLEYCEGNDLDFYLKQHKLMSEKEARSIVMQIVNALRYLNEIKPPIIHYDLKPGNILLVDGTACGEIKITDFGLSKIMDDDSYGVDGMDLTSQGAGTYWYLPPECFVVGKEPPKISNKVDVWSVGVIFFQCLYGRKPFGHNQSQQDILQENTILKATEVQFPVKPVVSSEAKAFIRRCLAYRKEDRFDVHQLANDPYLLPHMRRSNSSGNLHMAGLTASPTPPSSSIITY
UniProt Q16832, sequence (whole entry, looked up): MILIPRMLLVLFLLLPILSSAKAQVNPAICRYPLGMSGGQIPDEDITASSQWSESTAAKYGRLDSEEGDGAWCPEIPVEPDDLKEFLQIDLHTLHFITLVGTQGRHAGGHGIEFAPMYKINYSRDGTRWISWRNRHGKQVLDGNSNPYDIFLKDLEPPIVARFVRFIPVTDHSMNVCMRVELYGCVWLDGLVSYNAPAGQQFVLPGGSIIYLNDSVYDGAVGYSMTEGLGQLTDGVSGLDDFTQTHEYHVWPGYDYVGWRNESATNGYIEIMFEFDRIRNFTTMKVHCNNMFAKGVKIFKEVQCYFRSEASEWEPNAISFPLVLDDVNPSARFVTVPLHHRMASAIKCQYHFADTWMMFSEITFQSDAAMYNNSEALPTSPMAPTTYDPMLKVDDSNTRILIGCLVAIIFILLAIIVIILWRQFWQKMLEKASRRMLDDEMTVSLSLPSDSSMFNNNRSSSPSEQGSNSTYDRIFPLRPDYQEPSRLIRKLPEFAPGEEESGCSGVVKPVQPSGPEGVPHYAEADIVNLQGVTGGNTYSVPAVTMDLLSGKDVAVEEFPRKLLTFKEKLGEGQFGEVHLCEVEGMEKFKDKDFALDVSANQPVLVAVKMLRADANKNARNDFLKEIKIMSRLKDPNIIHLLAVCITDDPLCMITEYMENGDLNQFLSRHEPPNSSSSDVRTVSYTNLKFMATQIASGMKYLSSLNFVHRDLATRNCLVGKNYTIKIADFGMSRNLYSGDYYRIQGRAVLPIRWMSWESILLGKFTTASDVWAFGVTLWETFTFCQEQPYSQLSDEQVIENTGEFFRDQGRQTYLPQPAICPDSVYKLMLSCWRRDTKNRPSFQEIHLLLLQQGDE
UniProt Q13237, sequence (whole entry, looked up): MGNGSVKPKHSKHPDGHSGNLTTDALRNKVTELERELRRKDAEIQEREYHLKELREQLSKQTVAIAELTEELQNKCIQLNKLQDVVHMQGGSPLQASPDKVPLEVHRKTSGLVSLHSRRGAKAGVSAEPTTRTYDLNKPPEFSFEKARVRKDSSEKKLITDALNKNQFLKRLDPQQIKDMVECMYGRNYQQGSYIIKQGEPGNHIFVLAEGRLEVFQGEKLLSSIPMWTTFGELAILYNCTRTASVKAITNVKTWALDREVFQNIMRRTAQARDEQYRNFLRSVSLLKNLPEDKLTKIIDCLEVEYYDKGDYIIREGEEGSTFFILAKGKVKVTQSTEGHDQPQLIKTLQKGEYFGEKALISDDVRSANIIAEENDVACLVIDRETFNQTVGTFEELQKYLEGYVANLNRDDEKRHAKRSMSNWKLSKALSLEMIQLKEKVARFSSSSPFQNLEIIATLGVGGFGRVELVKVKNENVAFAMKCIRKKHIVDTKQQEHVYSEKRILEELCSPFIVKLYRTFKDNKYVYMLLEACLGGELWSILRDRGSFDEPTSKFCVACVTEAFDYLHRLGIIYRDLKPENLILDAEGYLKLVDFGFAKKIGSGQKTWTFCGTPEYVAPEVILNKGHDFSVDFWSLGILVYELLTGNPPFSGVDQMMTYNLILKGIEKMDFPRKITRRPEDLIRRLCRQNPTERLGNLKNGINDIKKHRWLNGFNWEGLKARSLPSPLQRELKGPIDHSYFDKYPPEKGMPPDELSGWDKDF
UniProt Q02750, sequence (whole entry, looked up): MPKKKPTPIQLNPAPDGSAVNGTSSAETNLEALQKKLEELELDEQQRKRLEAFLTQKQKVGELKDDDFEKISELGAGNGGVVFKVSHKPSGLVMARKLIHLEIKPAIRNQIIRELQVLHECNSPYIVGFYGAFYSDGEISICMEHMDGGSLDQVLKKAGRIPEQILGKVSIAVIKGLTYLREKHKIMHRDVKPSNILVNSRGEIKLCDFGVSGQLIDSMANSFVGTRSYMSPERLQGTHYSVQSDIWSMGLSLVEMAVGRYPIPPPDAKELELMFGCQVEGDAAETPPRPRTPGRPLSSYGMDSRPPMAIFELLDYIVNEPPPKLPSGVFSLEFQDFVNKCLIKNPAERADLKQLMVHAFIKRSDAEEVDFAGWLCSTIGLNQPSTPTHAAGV

Sample 1 — action: agonist
Target: Beta-1 adrenergic receptor (ADRB1, Homo sapiens, UniProt P08588)
UniProt P08588, sequence (whole entry, looked up): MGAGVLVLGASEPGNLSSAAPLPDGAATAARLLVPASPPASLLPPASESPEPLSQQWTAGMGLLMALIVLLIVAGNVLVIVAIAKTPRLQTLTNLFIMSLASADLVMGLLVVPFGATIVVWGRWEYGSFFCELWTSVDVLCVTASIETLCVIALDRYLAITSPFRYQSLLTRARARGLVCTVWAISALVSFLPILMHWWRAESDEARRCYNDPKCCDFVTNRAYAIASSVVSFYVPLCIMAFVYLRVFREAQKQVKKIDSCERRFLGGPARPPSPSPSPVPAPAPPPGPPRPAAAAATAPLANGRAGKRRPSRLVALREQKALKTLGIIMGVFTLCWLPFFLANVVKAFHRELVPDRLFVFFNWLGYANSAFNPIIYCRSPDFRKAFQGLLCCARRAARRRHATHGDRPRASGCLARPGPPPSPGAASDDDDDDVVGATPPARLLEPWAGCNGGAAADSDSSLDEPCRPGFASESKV
Structure (SMILES) | EC50
CCCC1C=CCN1C(=O)c1cc(-c2ccncc2)nc2ccccc12 (centres unmarked) | ≥ 100 µM
Oc1cccc(-c2c3nc(c(-c4cccc(O)c4)c4ccc([nH]4)c(-c4cccc(O)c4)c4nc(c(-c5cccc(O)c5)c5ccc2[nH]5)CC4)C=C3)c1 | ≥ 100 µM
Cc1[nH]c2ccc(C(=O)N3CCN(c4ccccc4Cl)CC3)cc2c1C | ≥ 100 µM
Clc1ccccc1N1CCN(C2CCNCC2)CC1 | ≥ 100 µM
COc1cc(CNCc2ccccc2C)ccc1OCC(O)CN1CCOCC1 (centres unmarked) | 10 µM
Cc1noc2c(-c3cn[nH]c3)cc(-c3cccc(C(F)(F)F)c3)nc12 | ≥ 100 µM
CN(C)c1ccc2nc3ccc(=[N+](C)C)cc-3sc2c1 | 12.6 µM

Sample 2 — effect on: kinase activity
SMILES: COc1cc(C(=O)N2CCC(N3CCN(C)CC3)CC2)ccc1Nc1ncc2c(n1)N(C)c1ccccc1C(=O)N2C
target | concentration | remaining activity [%]
MLK3 | 1 µM | 94 ± 6
PIM3 | 10 µM | 76 ± 4
PAK5 | 10 µM | 89 ± 1
MST4 | 10 µM | 87 ± 3
MARK1 | 1 µM | 89 ± 4

Sample 3 — effect on: cell-free assay; method: competition with immobilised ligand; concentration: 1 µM
SMILES: CCC(=O)N[C@H]1CC[C@@H](C(=O)N(C)c2ccc(-c3nc4ccccc4o3)cc2)C1
target | remaining binding [%]
EGFR (Homo sapiens, UniProt P00533, G719S) | 100
ERBB2 (Homo sapiens, UniProt P04626) | 100
TLK1 (Homo sapiens, UniProt Q9UKI8) | 84
PRKACA (Homo sapiens, UniProt P17612) | 100
EPHA3 (Homo sapiens, UniProt P29320) | 100
DAPK2 (Homo sapiens, UniProt Q9UIK4) | 100

Sample 4 — effect on: enzyme activity; action: inhibitor; concentration: 0.5 µM; relative to: control
Structure (SMILES): CSc1nc(-c2ccnc(N[C@@H](C)c3ccccc3)c2)c(-c2ccc(F)cc2)[nH]1 (racemic)
target | remaining activity
MAP2K1 (Homo sapiens, UniProt Q02750) | 93.9%
MAPK1 (Homo sapiens, UniProt P28482) | 102%
MARK2 (Homo sapiens, UniProt Q7KZI7) | 90.7%
GRK4 (Homo sapiens, UniProt P32298) | 90.6%
TXK (Homo sapiens, UniProt P42681) | 93.1%
PRKG2 (Homo sapiens, UniProt Q13237) | 102%
PAK3 (Homo sapiens, UniProt O75914) | 94.5%
DDR2 (Homo sapiens, UniProt Q16832) | 89.8%
CLK4 (Homo sapiens, UniProt Q9HAZ1) | 79.2%
CAMK4 (Homo sapiens, UniProt Q16566) | 106%
Myosin-IIIb (MYO3B, Homo sapiens, UniProt Q8WXR4) | 100%
CLK3 (Homo sapiens, UniProt P49761) | 85.4%
KDR (Homo sapiens, UniProt P35968) | 83.5%
MINK1 (Homo sapiens, UniProt Q8N4C8) | 89.6%

A few entries again (sample 4):
target | remaining activity
TXK (Homo sapiens, UniProt P42681) | 93.1%
PRKG2 (Homo sapiens, UniProt Q13237) | 102%
PAK3 (Homo sapiens, UniProt O75914) | 94.5%
DDR2 (Homo sapiens, UniProt Q16832) | 89.8%
CLK4 (Homo sapiens, UniProt Q9HAZ1) | 79.2%
